Measurements pooled from the literature.
Protocols differ between the studies behind these lines.

Structure (SMILES)	assay	test system	conditions	quantity	value
C[C@@H]1OC(=O)NN=C1c1ccc(-c2ccc(F)cc2)c(C(F)(F)F)c1	phase I trial, refers to: platelet count decreased	human patients	dose not given, worst grade 1, all doses	patients with TEAE	20%
COc1ccc(-c2c(-c3ccc(C#N)c(F)c3)nc(N3CCC(N)CC3)n(C)c2=O)cc1F	refers to: decreased appetite	human patients	oral, dose not given, dose escalation	patients with TRAE any grade	4%
O=C1Nc2cc3[nH]nc(-c4ccncc4)c3cc2CN1Cc1ccccc1	CTCAE v4.03	human, relapsed or refractory advanced solid tumours	intravenous, 1.8 mg/kg, pooled schedules	patients with nausea	100%
COc1ncnn2ccc(-c3cnc4nc(C)n(Cc5nnc([C@@H](C)F)o5)c4c3)c12	–	human	oral, dose not given, grade 4	patients with dysgeusia	0%
CN(C)C(=O)c1cc2cnc(Nc3ccc(N4CCNCC4)cn3)nc2n1C1CCCC1	refers to: Thrombocytopenia, AESI	human, HR+/HER2− advanced breast cancer	oral, dose not given, grade 4, CTCAE v4.03	patients with adverse event	0.3%
C[C@]1(O)C[C@@](N)(c2ccc(-c3nc4n(c3-c3ccccc3)COc3ccncc3-4)cc2)C1	–	human, advanced or metastatic solid tumours	dose not given, once-daily dose escalation total	patients with serious adverse event	55.6%
N[C@@H]1c2ccccc2OC12CCN(c1cnc3c(N4CCCc5ncccc54)n[nH]c3n1)CC2	refers to: Anemia	human advanced or metastatic solid tumours	oral, 60 mg once daily, phase Ia pooled cohort	patients with treatment-emergent adverse event	20%
C=CC(=O)Nc1cc(Nc2nccc(Nc3cc(Cl)c(F)cc3C(C)(C)O)n2)c(OC)cc1N1CC[C@@H](N(C)C)C1	–	human	oral, dose not given, phase I clinical	patients with adverse event Paronychia	28.4%
Cn1cncc1-c1c(F)cncc1NC(=O)c1c(N)nn2cc(F)cnc12	–	human patients	oral, dose not given, all doses	patients grade ≥3 Lymphocyte count decrease	24%
Cc1cn([C@H]2O[C@@H](CO[P@@](=O)(N[C@@H](C)C(=O)OC(C)C)Oc3ccccc3)[C@H](O)[C@H]2F)c(=O)[nH]c1=O	refers to: external ear pain	human	10 mg	patients with TEAE	0%
